Assay results of several laboratories.
Lines come from different studies, so protocols differ. “And” joins repeats or separate records; there may be more than shown. ± gives the spread as reported.

The cytotoxicity efficacy of `COc1cccc(-c2ccc(CN3CCCC(c4nc5ccc(C)cc5c(=O)[nH]4)C3)cc2)c1` (stereo not drawn) is reported as -51.6% (Vero-E6; CellTiter-Glo ATP; concentration not given, 72 h, retest 8-point duplicates; baseline: DMSO 0%, hyamine -100%, more negative, more toxic).
For `c1ccc2c(c1)ncn2Cc1nnc2sc(-c3ccc4c(c3)OCCO4)nn12`, the CC50 was 12.6 µM (HEp-2; cytotoxicity).
The viability of `CC(C)C[C@@H](NC(=O)[C@H](N)CCCCN)C(=O)N[C@H](CC(C)C)C(=O)N[C@H](Cc1ccccc1)C(N)=O` is reported as 100% (NGF-differentiated PC-12 neurons; 10 µM, 24 h; baseline: untreated).
For `CN(CC[C@H](Oc1cccc2ccccc12)c1cccs1)N=O`, the relative survival was 28.4% (TK6; 7.5 µM, 4 h, with: hamster liver S9; baseline: vehicle).
With `CN1CCCN(S(=O)(=O)c2ccc(-c3ccc4nccc(Nc5ccc(OCc6cccc(F)c6)c(Cl)c5)c4c3)cc2)CC1` the TC50 was 18 µM (NIH 3T3; PrestoBlue; 2% FBS medium; 96 h).
With `COc1ccc(Nc2nn3c(-c4ccccc4)ccnc3c2C(=O)Nc2ccc(Cl)cc2)cc1` the viability was 89.8% (WI-38; MTT; serum-free medium; 62.50 µg/mL, 48 h).
`CC(C)C[C@@H](N)C(=O)N[C@H](CC(C)C)C(=O)N[C@H](Cc1ccccc1)C(=O)N[C@H](Cc1ccccc1)C(N)=O` gave a viability of 46.9% (NGF-differentiated PC-12 neurons; 80 µM, 24 h; baseline: untreated).
`COCCCNC(=O)C1CCN(Cc2cc3ccccc3n2Cc2cccc(Cl)c2)CC1` gave a cytotoxicity efficacy of 0% (Vero-E6; CellTiter-Glo ATP; concentration not given, 72 h, second round 5-point; baseline: DMSO 0%, hyamine -100%, more negative, more toxic).
`Clc1ccc(-c2nn3c(Cn4nnc5ccccc54)nnc3s2)c(Cl)c1` gave a CC50 of greater than 100 µM (HEp-2; cytotoxicity).
The viability of `CC(C)C[C@@H](N)C(=O)N[C@H](CC(C)C)C(=O)N[C@H](Cc1ccccc1)C(=O)N[C@H](Cc1ccccc1)C(=O)N[C@H](C)C(=O)N[C@H](CCC(=O)O)C(N)=O` is reported as 99.9% (NGF-differentiated PC-12 neurons; 10 µM, 24 h; baseline: untreated).
For `CC(C)(C)c1cc(-c2nn3c(Cn4cnc5ccccc54)nnc3s2)cc(C(C)(C)C)c1`, the CC50 was 1.3 µM (HEp-2; cytotoxicity).
`COc1cc2c(cc1OCC1CC1)NC(=O)C21CCN(c2cc(NC3CC3)ncn2)CC1` gave a cytotoxicity efficacy of 0% (Vero-E6; CellTiter-Glo ATP; concentration not given, 72 h, first round 5-point; baseline: DMSO 0%, hyamine -100%, more negative, more toxic).
`CN(C)N=O` — result for “micronucleus fold increase”: 3 fold (HepaRG; concentration not given, highest tested concentration; baseline: vehicle).
`Cc1nc2ccccc2n1Cc1nnc2sc(-c3cc(CC(C)C)[nH]n3)nn12` gave a CC50 of 43.2 µM (HEp-2; cytotoxicity).
`COc1ccc2c(Sc3ccc(Cl)cc3)c(C(=O)NCCCN3CCCCC3)[nH]c2c1` has a maximum response of -2% (Vero-E6; CellTiter-Glo ATP; 72 h, second round 5-point; baseline: DMSO 0%, hyamine -100%, more negative, more toxic).
For `O=S(=O)(c1ccc(-c2ccc3nccc(Nc4ccccc4)c3c2)cc1)N1CCOCC1`, the TC50 was greater than 20 µM (NIH 3T3; cytotoxicity, PrestoBlue; 96 h, 2% FBS).
For `CC(C)C[C@@H](NC(=O)[C@H](N)CCCCN)C(=O)N[C@H](CC(C)C)C(=O)N[C@H](Cc1ccccc1)C(=O)N[C@H](Cc1ccccc1)C(=O)N[C@H](C)C(N)=O`, the viability was 97.2% (NGF-differentiated PC-12 neurons; 20 µM, 24 h; baseline: untreated).
Under “late apoptotic cells”, `CC(c1ccccc1)(c1ccc(O)cc1)c1ccc(O)cc1` is recorded as 29.9 ± 18.5% (HepG2 spheroids, dissociated; annexin V-FITC/PI flow cytometry; 0.01 µM, 96 h).
The TC50 of `Cc1noc(C)c1Nc1ccnc2ccc(-c3ccc(S(=O)(=O)N4CCOCC4)cc3)cc12` is reported as greater than 20 µM (NIH 3T3; cytotoxicity, PrestoBlue; 96 h, 2% FBS).
The non-viable cells of `Cc1ccc2[nH]c3c(c2c1)CCCC3NCCCNC1CCCc2c1[nH]c1ccc(C)cc21` (stereo not drawn) is reported as 62.2 ± 27.3% (A549; 50 µM, 23 h).
With `CCCCSCCCNC(=O)C1CCN(Cc2nc(-c3ccc(CC)cc3)oc2C)CC1` the maximum response was -14.6% (Vero-E6; CellTiter-Glo ATP; 72 h, retest 8-point duplicates; baseline: DMSO 0%, hyamine -100%, more negative, more toxic).
For `CC[C@H](C)[C@H](NC(=O)[C@H](CC(C)C)NC(=O)[C@@H](NC(=O)[C@H](CCCCN)NC(=O)[C@H](CCCNC(=N)N)NC(=O)[C@H](CCCCN)NC(=O)[C@H](CC(C)C)NC(=O)[C@H](Cc1ccc(O)cc1)NC(=O)[C@@H](NC(=O)[C@@H](NC(=O)[C@H](Cc1ccccc1)NC(=O)CN)C(C)C)C(C)C)[C@@H](C)O)C(=O)N[C@@H](CCCNC(=N)N)C(=O)N[C@@H](CC(C)C)C(=O)N[C@@H](CC(C)C)C(=O)N[C@@H](Cc1ccccc1)C(=O)N[C@H](C(=O)N[C@@H](CC(N)=O)C(=O)N[C@@H](CCCCN)C(=O)N[C@@H](CCCCN)C(=O)N[C@H](C(=O)N[C@H](C(=O)N[C@H](C(=O)N[C@@H](CCC(=O)O)C(=O)N[C@@H](CCCCN)C(=O)N[C@@H](CC(C)C)C(=O)N[C@@H](CCCNC(=N)N)C(=O)N[C@@H](CS)C(=O)N[C@H](C(=O)N[C@@H](CCCNC(=N)N)C(=O)N1CCC[C@H]1C(=O)N[C@@H](CO)C(=O)N[C@@H](CCCNC(=N)N)C(=O)N1CCC[C@H]1C(=O)N1CCC[C@H]1C(=O)N[C@@H](CCCNC(=N)N)C(=O)NCC(=O)N[C@@H](Cc1ccccc1)C(=O)O)C(C)C)[C@@H](C)CC)[C@@H](C)O)[C@@H](C)O)[C@@H](C)O`, the CC50 was 72.8 µM (THP-1, PMA-differentiated; cell viability, MTT).
`Oc1ccc(C(c2ccc(O)cc2)(C(F)(F)F)C(F)(F)F)cc1` gave a viable cells of 44.2 ± 2.8% (HepG2 spheroids, dissociated; annexin V-FITC/PI flow cytometry; 1 µM, 96 h).
The cytotoxicity efficacy of `CCCCN(CCCC)CCCNC(=O)c1ccc2nc(N3CCCCC3)sc2c1` is reported as 0% (Vero-E6; CellTiter-Glo ATP; concentration not given, 72 h, retest 8-point duplicates; baseline: DMSO 0%, hyamine -100%, more negative, more toxic).
The IC50 of `CC1=CC(=O)c2c(O)cccc2C1=O` is reported as 5 ± 0.08 µM (MRC-5; cytotoxicity, MTT; 48 h, 10% FBS).
Under “late apoptotic cells”, `CC(C)(c1ccc(O)cc1)c1ccc(O)cc1` is recorded as 9.19 ± 1.56% (HepG2 spheroids, dissociated; annexin V-FITC/PI flow cytometry; 40 µM, 24 h).
With `Cc1c2ccccc2c(C)c2c1ccc1ccccc12` the micronucleated cells was 2.6% (HepaRG; maximum tested, 24 (unit not given)).
The half-life of `N#C[C@@]1(n2ccc(N)nc2=O)O[C@H](COP(=O)(O)OP(=O)(O)OP(=O)(O)O)[C@@H](O)[C@H]1O` is reported as 1.7 h (Calu-3; cellular egress; 10 µM, 24 h preincubation).
For `O=S(=O)(c1ccc(-c2ccc3nccc(Nc4nnc(C5CC5)s4)c3c2)cc1)N1CCOCC1`, the TC50 was greater than 20 µM (NIH 3T3; cytotoxicity, PrestoBlue; 96 h, 2% FBS).
`C#CC[C@H](NC(=O)[C@H](CCCCN)NC(=O)[C@H](CCCCN)NC(=O)[C@H](Cc1c[nH]c2ccccc12)NC(=O)[C@H](CCCCN)NC(=O)[C@H](CCSC)NC(=O)[C@H](CCCNC(=N)N)NC(=O)[C@H](CCCNC(=N)N)NC(=O)[C@H](CC(N)=O)NC(=O)[C@H](CCC(N)=O)NC(=O)[C@H](Cc1ccccc1)NC(=O)[C@H](Cc1c[nH]c2ccccc12)NC(=O)[C@@H](NC(=O)[C@H](CCCCN)NC(=O)[C@@H](NC(=O)[C@H](CCC(N)=O)NC(=O)[C@@H](N)CCCNC(=N)N)[C@@H](C)CC)[C@@H](C)CC)C(=O)N[C@@H](CC(N)=O)C(=O)N[C@@H](Cc1c[nH]cn1)C(=O)N[C@H](C(=O)N[C@@H](CCSC)C(=O)N[C@@H](CC(C)C)C(=O)N[C@@H](CC(N)=O)C(=O)N[C@@H](Cc1c[nH]cn1)C(=O)N[C@@H](CC(C)C)C(=O)N[C@@H](Cc1ccc(O)cc1)C(=O)N[C@@H](C)C(=O)N[C@@H](CC(C)C)C(=O)N[C@@H](CO)C(=O)N[C@H](C(=O)N[C@@H](CCCCN)C(=O)N[C@@H](CC(=O)O)C(=O)NCC(=O)N[C@H](C(N)=O)C(C)C)[C@@H](C)CC)C(C)C` — result for cell growth: “no effect” (C26; 2.2 µM, two days).
The cytotoxic concentration of `CCCCNC(=O)n1c(NC(=O)OC)nc2ccccc21` is reported as greater than 1 µM (WA09 hESC-derived forebrain rosette tissues; neural induction and rosette emergence; 5 days).
For `Oc1ccc(C2(c3ccc(O)cc3)c3ccccc3-c3ccccc32)cc1`, the necrotic cells was 39.9 ± 24.9% (HepG2 spheroids; annexin V-FITC/PI flow cytometry; 0.01 µM, 96 h).
With `CC(C)C[C@@H](NC(=O)[C@H](N)CCCCN)C(=O)N1CCC[C@@H]1C(=O)N[C@H](Cc1ccccc1)C(=O)N[C@H](Cc1ccccc1)C(=O)N[C@H](C)C(N)=O` the viability was 99.1% (NGF-differentiated PC-12 neurons; 10 µM, 24 h; baseline: untreated).
`COc1ccccc1-c1cccc(CN2CCCC(C(=O)NCc3ccc(F)cc3)C2)c1` (stereo not drawn) gave a cytotoxicity efficacy of -29.9% (Vero-E6; CellTiter-Glo ATP; concentration not given, 72 h, retest 8-point duplicates; baseline: DMSO 0%, hyamine -100%, more negative, more toxic).
For `CC(C)C[C@@H](N)C(=O)N[C@H](Cc1ccccc1)C(=O)N[C@H](Cc1ccccc1)C(=O)N[C@H](C)C(=O)N[C@H](CCC(=O)O)C(N)=O`, the viability was 81.6% (NGF-differentiated PC-12 neurons; 10 µM, 24 h; baseline: untreated).
Under micronucleus induction, `CN(CC(O)c1cccc(O)c1)N=O` (stereo not drawn) is recorded as “negative” (TK6).
For `CC(C)C[C@H](NC(=O)[C@H](C)NC(=O)[C@@H](NC(=O)[C@H](CCCNC(=N)N)NC(=O)[C@H](CC(C)C)NC(=O)[C@H](Cc1c[nH]c2ccccc12)NC(=O)[C@@H]1CCCN1C(=O)[C@@H](N)CCCCN)C(C)C)C(=O)N[C@@H](CS)C(=O)N1CCC[C@H]1C(=O)NCC(=O)O`, the viability was 105% and 104% and 92.1% (HEp-2; WST-1; 4 µM, 24 h).
The viability of `CC(C)C[C@@H](NC(=O)[C@H](N)CCCCN)C(=O)N1CCC[C@@H]1C(=O)N[C@H](Cc1ccccc1)C(=O)N[C@H](Cc1ccccc1)C(N)=O` is reported as 100% (NGF-differentiated PC-12 neurons; 80 µM, 24 h; baseline: untreated).
The viability of `O=[N+]([O-])c1ccc(-c2nn(-c3ccccc3)c3sc(NC(c4ccccc4O)P(=O)(Oc4ccccc4)Oc4ccccc4)nc23)cc1` (stereo not drawn) is reported as 97.6% (BNL mouse liver cells; SRB; 1 µM, 10% fetal bovine serum).
For `O=c1ccc2ccccc2o1`, “point of departure” read 849 µM (HepG2; refers to: HIF1alpha; 24 h, inflammation and pH panel).
`CC(C)C[C@@H](NC(=O)[C@H](N)CCCCN)C(=O)N1CCC[C@@H]1C(=O)N[C@H](Cc1ccccc1)C(=O)N[C@H](Cc1ccccc1)C(=O)N[C@H](C)C(=O)N[C@H](CCC(=O)O)C(N)=O` gave a viability of 79.3% (NGF-differentiated PC-12 neurons; 160 µM, 24 h; baseline: untreated).
With `O=NN1CC2CC(C1)c1cc3nccnc3cc12` the relative survival was 80.5% (TK6; 80 µM, 4 h, with: hamster liver S9; baseline: vehicle).
For `C/C=C(/C)C(=O)OC[C@H]1[C@@H](Cc2ccc(F)cc2)CO[C@@H]1c1ccc(F)cc1`, the LDH release was 5.9 ± 3.5% (rat aortic VSMCs; 30 µM, 24.5 h).
For `COc1c2c(cc3oc(-c4ccccc4)cc(=O)c13)OC(C)(C)C=C2`, the cytotoxicity was 10.5% (Calu-3; 50 µM).
The TC50 of `COc1ncc(Nc2ccnc3ccc(-c4ccc(S(=O)(=O)N5CCOCC5)cc4)cc23)cn1` is reported as greater than 20 µM (NIH 3T3; cytotoxicity, PrestoBlue; 96 h, 2% FBS).
The viable cells of `Cc1cc(C(C)(C)c2ccc(O)c(C)c2)ccc1O` is reported as 38.1 ± 9.63% (HepG2 spheroids, dissociated; annexin V-FITC/PI flow cytometry; 1 µM, 96 h).
`Cc1ccc(-c2cccc(CN3CCCC(c4nc5ccc(C)cc5c(=O)[nH]4)C3)c2)c(C)c1` (stereo not drawn) has a cytotoxicity efficacy of 0% (Vero-E6; CellTiter-Glo ATP; concentration not given, 72 h, retest 8-point duplicates; baseline: DMSO 0%, hyamine -100%, more negative, more toxic).
With `N.N.[Cl][Pt][Cl]` the micronucleated cells was 11.7% (HepaRG; maximum tested).
